{"data": "Published values from different studies", "note": "Each line is one published result; not all experiments were run side by side. ± marks the error that the study gave."}
{"Compound": "COc1cc(O)ccc1CCC(c1ccc(O)cc1)c1cc2c(c(C)c1O)OC(c1ccc(O)cc1)CC2 (mixture of isomers)", "test": "refers to: 5,15-diHETE", "test system": "human whole blood", "setting": "30 µM, together with: Escherichia coli", "measurement": "amount", "result": "42 ± 9 pg/mL blood"}
{"Compound": "COC1OC(C)C(OC2OC(C)C(O)C(OS(=O)(=O)O)C2OS(=O)(=O)O)C(OS(=O)(=O)O)C1OS(=O)(=O)O (stereo not shown)", "test system": "human plasma", "setting": "128 µg/mL", "how to read": "reference: control", "measurement": "APTT prolongation", "result": "1.1 fold"}
{"Compound": "Nc1nc2cnc(C(=O)N3CCOC[C@@H]3c3ccc(C(F)(F)F)cc3)cc2c2c1COC2", "test": "ELISA, refers to: SDMA", "test system": "mouse, HCT-116 MTAP wild type xenograft, tumour", "setting": "oral, 3 mg/kg once daily", "how to read": "reference: vehicle", "measurement": "inhibition", "result": "26%"}
{"Compound": "COCCOCCOCCNC(=O)Cc1cc(CC(=O)N[C@H]2C[C@H]3C(=O)Nc4cc(OCCOCCOCCOC)cc(n4)C(=O)N4CCC[C@H]4C(=O)Nc4cc(OCCOCCOCCOC)cc(n4)C(=O)N4CCC[C@H]4C(=O)Nc4cc(OCCOCCOCCOC)cc(n4)C(=O)N3C2)cc(CC(=O)N[C@H]2C[C@H]3C(=O)Nc4cc(OCCOCCOCCOC)cc(n4)C(=O)N4CCC[C@H]4C(=O)Nc4cc(OCCOCCOCCOC)cc(n4)C(=O)N4CCC[C@H]4C(=O)Nc4cc(OCCOCCOCCOC)cc(n4)C(=O)N3C2)c1", "test": "anion binding, ITC", "test system": "water/acetonitrile 95 vol% (98.2 mol%)", "setting": "298 K, together with: sodium sulfate", "measurement": "ΔG", "result": "-5.43 ± 0.0717 kcal/mol"}
{"Compound": "CN1CCCNC(=O)c2cccc(c2)C(=O)NCCCN(C)CCCNc2cccc3c2C(=O)c2cccc(c2C3=O)NCCC1", "tested on": "SAS", "test": "RNA-Seq, refers to: MRPL2 mRNA", "setting": "1 µM, 6 h", "how to read": "reference: untreated cells", "measurement": "log2 fold change", "result": 0.418}
{"Compound": "CCCCNC(CCCC)CSS(=O)(=O)O (stereo not shown)", "test system": "Swiss Webster mice, Schistosoma mansoni infected", "setting": "100 mg/kg", "how to read": "reference: vehicle control", "measurement": "spleen weight decrease", "result": "20%"}
{"Compound": "Oc1cc2c(cc1O)C(c1cccc3ccccc13)NCC2 (stereo not shown)", "test": "ferrozine", "test system": "cell-free", "setting": "100 µM, DMSO solvent", "measurement": "Fe2+ chelation", "result": "96.04 ± 0.24%"}
{"Compound": "CC(=O)[O-].O.[Cu+2].[O-]c1ccc(Br)cc1C=NCCN1CCOCC1", "test": "superoxide scavenging", "setting": "40 µM", "measurement": "inhibition", "result": "5.42%"}
{"Compound": "Nc1ncc(-c2cc(-c3cnn(CC(F)(F)F)c3)ncc2F)nc1C(=O)NC1CNCC(F)C1 (stereo not shown)", "tested on": "FGFR1", "test": "KINOMEscan", "setting": "1 µM", "how to read": "reference: DMSO control", "measurement": "remaining binding", "result": "89%"}
{"Compound": "CC(CCC(=O)NCc1ccc(C(=O)NO)cc1)C1CCC2C3C(O)CC4CC(O)CCC4(C)C3CCC12C (stereo not shown)", "test": "refers to: UDCA", "test system": "PCK rat (Pkhd1 mutant), peripheral blood", "setting": "oral gavage, dose not given, 5 months", "how to read": "reference: total bile acids", "measurement": "relative abundance", "result": "1.77%"}
{"Compound": "COC1OC(C)C(OC2OC(C)C(OS(=O)(=O)O)C(OC3OC(C)C(OC4OC(C)C(OS(=O)(=O)O)C(OS(=O)(=O)O)C4O)C(OS(=O)(=O)O)C3O)C2O)C(OS(=O)(=O)O)C1O (stereo not shown)", "test system": "human plasma", "setting": "128 µg/mL", "how to read": "reference: control", "measurement": "APTT prolongation", "result": "1.1 fold"}
{"Compound": "C=CC(=O)Nc1cccc(Cn2ncc3cnc(Nc4cnn(CCOC)c4)nc32)c1", "tested on": "CASK human", "test": "binding, KINOMEscan", "setting": "100 nM", "how to read": "lower = stronger binding", "measurement": "percent of control", "result": "99%"}
{"Compound": "Cc1ncsc1-c1ccc(C(C)NC(=O)C2CC(O)CN2C(=O)C(NC(=O)CCCCCCCCCCN2CCCC(Nc3ncc(Cl)c(Nc4ccccc4S(=O)(=O)C(C)C)n3)C2)C(C)(C)C)cc1 (stereo not shown)", "tested on": "22Rv1", "test": "RNA-seq, refers to: PSD4 mRNA", "setting": "concentration not given", "how to read": "reference: DMSO", "measurement": "log2 fold change", "result": -1.88}
{"Compound": "CNS(=O)(=O)Nc1nccc(Cc2c(C)c3ccc(Oc4ncccc4F)cc3oc2=O)c1F", "tested on": "HCC1806", "test": "cell viability", "setting": "7 days", "measurement": "IC50", "result": "13 nM"}
{"Compound": "COC(=O)C1CN1S(=O)(=O)c1ccc2cc(C)ccc2c1 (stereo not shown)", "test system": "mouse, Lewis lung carcinoma", "setting": "ip, 100 mg/kg, 312 h", "measurement": "tumour growth inhibition", "result": "50%"}
{"Compound": "COC1CN([C@H]2CC[C@H]([C@@]3(C)Oc4c(Cl)cc(C(=O)NCc5c(SC)cc(C)[nH]c5=O)c(C)c4O3)CC2)C1", "test": "RNA-seq, refers to: CXCL16", "test system": "human, whole blood", "setting": "dose not given, 24 h", "how to read": "reference: pretreatment baseline", "measurement": "log2 fold change", "result": 2.58}
{"note": "A few entries again:"}
{"Compound": "CC(=O)[O-].O.[Cu+2].[O-]c1ccc(Br)cc1C=NCCN1CCOCC1", "test": "superoxide scavenging", "setting": "40 µM", "measurement": "inhibition", "result": "5.42%"}
{"Compound": "Nc1ncc(-c2cc(-c3cnn(CC(F)(F)F)c3)ncc2F)nc1C(=O)NC1CNCC(F)C1 (stereo not shown)", "tested on": "FGFR1", "test": "KINOMEscan", "setting": "1 µM", "how to read": "reference: DMSO control", "measurement": "remaining binding", "result": "89%"}
